Assay results collected from several papers.
Numbered parts are unrelated; each lists some results of a single study. Positions count from the first letter of the parent shown.
Chain of UniProt Q8L7G0 (whole entry, looked up): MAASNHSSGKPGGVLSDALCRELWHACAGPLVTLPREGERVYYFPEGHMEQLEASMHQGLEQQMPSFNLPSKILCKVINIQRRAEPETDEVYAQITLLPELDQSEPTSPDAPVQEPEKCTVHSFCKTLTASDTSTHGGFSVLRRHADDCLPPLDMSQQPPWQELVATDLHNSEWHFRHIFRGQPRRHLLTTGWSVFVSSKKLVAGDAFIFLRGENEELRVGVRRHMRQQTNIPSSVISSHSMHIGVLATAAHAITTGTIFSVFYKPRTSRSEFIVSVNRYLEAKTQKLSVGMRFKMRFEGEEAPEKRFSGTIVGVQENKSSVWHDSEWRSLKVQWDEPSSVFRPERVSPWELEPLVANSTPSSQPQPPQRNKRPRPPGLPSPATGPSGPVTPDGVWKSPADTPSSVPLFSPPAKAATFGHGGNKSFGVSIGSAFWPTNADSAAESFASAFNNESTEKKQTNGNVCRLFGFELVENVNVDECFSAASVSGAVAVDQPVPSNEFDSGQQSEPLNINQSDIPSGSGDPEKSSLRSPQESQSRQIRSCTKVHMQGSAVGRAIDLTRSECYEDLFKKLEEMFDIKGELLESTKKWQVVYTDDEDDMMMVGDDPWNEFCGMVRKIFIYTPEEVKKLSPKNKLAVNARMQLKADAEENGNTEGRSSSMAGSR
Chain of UniProt Q38829 (whole entry, looked up): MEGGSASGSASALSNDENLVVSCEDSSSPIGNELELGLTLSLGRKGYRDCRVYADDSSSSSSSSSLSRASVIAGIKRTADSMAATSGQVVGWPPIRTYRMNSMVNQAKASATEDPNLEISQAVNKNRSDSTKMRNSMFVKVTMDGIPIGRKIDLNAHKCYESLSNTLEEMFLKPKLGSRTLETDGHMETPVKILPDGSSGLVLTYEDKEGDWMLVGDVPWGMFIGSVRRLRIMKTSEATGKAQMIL
Chain of UniProt Q38831 (whole entry, looked up): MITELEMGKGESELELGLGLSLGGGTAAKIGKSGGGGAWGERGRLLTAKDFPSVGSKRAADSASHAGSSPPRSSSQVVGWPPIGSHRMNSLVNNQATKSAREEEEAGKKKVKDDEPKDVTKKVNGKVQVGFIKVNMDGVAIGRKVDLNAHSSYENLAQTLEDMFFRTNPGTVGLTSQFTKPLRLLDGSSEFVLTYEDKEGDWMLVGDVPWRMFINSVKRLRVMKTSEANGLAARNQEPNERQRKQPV
Chain of UniProt O24407 (whole entry, looked up): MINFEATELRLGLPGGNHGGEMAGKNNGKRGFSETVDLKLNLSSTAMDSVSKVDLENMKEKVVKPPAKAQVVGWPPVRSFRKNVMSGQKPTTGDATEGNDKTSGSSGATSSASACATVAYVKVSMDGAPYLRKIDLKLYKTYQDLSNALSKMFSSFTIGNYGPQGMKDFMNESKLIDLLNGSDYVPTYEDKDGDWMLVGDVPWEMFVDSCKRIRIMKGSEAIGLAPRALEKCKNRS
Chain of UniProt P93024 (whole entry, looked up): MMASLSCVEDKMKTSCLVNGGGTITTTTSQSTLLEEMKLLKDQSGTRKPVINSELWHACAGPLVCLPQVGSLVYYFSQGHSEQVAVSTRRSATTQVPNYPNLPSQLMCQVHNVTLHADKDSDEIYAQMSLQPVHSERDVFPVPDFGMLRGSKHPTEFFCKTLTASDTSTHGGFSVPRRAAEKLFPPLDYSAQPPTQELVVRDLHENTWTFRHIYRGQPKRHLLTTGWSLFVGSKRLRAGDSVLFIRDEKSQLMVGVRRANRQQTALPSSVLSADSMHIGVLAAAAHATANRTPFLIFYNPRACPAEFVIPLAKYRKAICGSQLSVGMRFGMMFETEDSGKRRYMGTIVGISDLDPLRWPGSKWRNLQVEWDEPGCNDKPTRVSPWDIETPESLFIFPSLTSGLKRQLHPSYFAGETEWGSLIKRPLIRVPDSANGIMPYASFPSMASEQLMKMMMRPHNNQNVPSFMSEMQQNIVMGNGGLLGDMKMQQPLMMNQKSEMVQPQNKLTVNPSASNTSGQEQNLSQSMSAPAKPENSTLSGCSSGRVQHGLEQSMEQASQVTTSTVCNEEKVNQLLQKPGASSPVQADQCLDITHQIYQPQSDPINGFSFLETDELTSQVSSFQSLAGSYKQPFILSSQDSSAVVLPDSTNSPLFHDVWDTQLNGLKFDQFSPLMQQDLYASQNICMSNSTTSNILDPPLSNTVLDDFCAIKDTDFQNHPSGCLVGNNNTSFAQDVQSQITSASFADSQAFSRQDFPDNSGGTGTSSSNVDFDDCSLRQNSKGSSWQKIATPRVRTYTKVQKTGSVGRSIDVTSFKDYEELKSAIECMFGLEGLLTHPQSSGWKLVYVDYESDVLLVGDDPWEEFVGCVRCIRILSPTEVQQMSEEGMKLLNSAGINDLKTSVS
Chain of UniProt Q93YR9 (whole entry, looked up): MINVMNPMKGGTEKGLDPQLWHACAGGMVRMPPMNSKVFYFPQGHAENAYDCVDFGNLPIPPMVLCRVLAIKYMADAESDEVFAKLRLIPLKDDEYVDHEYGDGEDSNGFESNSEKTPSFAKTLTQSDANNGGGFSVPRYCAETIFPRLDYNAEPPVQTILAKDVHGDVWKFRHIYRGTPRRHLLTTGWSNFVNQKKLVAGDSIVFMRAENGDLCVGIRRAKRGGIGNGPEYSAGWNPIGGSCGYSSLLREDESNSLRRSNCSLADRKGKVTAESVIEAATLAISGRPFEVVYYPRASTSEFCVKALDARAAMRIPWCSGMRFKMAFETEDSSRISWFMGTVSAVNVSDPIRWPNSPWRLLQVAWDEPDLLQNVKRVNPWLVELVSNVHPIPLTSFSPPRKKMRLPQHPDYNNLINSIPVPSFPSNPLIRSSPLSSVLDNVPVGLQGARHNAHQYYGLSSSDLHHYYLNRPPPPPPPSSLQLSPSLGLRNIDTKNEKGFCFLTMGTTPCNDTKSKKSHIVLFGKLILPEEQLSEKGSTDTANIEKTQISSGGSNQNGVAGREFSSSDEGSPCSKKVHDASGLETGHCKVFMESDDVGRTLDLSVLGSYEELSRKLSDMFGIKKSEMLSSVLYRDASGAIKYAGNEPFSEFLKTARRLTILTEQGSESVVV
Chain of UniProt Q9XFM0 (whole entry, looked up): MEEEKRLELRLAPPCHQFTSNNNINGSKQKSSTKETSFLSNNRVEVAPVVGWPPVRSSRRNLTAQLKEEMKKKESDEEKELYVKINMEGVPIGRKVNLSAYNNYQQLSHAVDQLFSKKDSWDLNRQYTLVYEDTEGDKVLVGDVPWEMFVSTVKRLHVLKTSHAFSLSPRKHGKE
Chain of UniProt Q9FKM7 (whole entry, looked up): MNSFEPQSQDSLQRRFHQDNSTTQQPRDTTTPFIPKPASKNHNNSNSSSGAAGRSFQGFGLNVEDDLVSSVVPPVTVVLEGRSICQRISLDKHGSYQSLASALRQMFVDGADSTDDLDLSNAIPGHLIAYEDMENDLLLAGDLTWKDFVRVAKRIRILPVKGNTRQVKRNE
Chain of UniProt Q9C966 (whole entry, looked up): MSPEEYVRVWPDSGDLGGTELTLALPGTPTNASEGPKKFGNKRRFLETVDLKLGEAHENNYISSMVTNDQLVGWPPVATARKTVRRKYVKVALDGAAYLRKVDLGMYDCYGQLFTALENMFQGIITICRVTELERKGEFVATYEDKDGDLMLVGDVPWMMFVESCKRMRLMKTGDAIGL
Chain of UniProt Q38828 (whole entry, looked up): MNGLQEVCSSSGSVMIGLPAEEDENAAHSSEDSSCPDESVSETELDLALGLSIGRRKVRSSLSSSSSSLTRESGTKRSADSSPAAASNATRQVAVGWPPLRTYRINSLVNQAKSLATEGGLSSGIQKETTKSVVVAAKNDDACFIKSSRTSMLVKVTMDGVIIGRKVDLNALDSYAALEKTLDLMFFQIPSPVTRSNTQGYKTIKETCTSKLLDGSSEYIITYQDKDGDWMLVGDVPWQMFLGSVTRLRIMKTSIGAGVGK

Sample 1
Target: Interferon regulatory factor 3, full length, phosphomimetic (IRF3, Homo sapiens, UniProt Q14653, residues 1-427, S386D/S396D/S398D/S402D/T404D/S405D)
Chain of UniProt Q14653 (whole entry, unmodified, looked up): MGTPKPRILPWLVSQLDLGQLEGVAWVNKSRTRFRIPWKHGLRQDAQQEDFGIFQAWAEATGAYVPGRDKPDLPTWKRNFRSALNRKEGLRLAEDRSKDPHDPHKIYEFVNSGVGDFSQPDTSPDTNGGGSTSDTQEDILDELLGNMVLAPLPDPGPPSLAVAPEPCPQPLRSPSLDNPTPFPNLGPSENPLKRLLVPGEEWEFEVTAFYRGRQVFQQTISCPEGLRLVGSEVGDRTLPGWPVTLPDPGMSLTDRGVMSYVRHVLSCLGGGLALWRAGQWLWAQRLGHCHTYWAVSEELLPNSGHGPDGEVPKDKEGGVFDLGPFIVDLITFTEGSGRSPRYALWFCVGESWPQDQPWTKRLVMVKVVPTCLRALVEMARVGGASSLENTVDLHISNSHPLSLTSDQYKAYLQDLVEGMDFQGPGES
Technique: protein-binding microarray
Molecule type: double-stranded DNA, one strand shown
Medium: in vitro
Concentration: 2540 nM top
Notes: 60-bp whole probe
Added: salmon DNA 0.4 mg/ml
Relative to: random background probes
Direction: higher = stronger binding
All sequences stand within: GCCTAGCAC … GTCTTGATTCGCTTGACGCTGCTG
| Strand | fitted relative affinity |
| --- | --- |
| GACGGACTGGACACGGGGGACGTGCTA | -0.226 z-score |
| TTAGGTTTCTTACTGCTTTAGTGCTAG | 1.39 z-score |
| TTAGGTATCCTAATGCTTTAGTGCTAG | 4.07 z-score |
| TCAGTTTGCCCTATTTAACTGTGCTAG | 1.65 z-score |
| GACGAACTGAGTATTGAGACGTGCTAG | -0.117 z-score |
| AACGGTTTCGGTTCCGGGACGTGCTAG | 10 z-score |
| TCATGTTTGATCTTGATACTGTGCTAG | 0.331 z-score |
| TTAGGTTTCGGTGTCGGTTAGTGCTAG | 6.2 z-score |
| CACGGTTTCGGTTCCGGGACGTGCTAG | 9.76 z-score |
| TTAGAGTTCAGTTTCGATTAGTGCTAG | 4.11 z-score |
| GGCTTCCTCTTTCTCTGCTAGTGCTAG | 1.5 z-score |
| TTAGGTATCTGGACTGGGTTAGTGCTA | -0.0868 z-score |
| TCAGATATAGGATAACGAACTGTGCTA | 0.23 z-score |
| AGACATGACACCACTCCTGAGTGCTAG | -0.347 z-score |
| TTAGATATCCGGACTGGATTAGTGCTA | 0.76 z-score |
| TCATGTTTTTTTCTATAACTGTGCTAG | 0.817 z-score |
| TTATGTATCCTACTGCTTTAGTGCTAG | 2.48 z-score |
| TTAGGTTCCGGTTTCGGTTAGTGCTAG | 7.72 z-score |
| GACAATATCAGTATCGAGACGTGCTAG | 1.26 z-score |
| TTAGAACTGGGGTTTAGATTAGTGCTA | -0.823 z-score |
| GACGGTTTCGACATTCGGGACGTGCTA | 3.36 z-score |

Sample 2
Molecule: IAA8 (Arabidopsis thaliana, UniProt Q38826)
Chain of UniProt Q38826 (whole entry, looked up): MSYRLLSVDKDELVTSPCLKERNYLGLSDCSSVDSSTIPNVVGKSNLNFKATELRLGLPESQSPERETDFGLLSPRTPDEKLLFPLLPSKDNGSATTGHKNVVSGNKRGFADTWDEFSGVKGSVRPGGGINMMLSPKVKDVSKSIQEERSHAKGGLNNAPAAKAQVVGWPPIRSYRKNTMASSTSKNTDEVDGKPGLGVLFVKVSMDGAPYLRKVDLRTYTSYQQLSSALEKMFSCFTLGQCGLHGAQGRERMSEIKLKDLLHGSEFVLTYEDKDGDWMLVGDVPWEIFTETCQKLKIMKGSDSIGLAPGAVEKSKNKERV
Technique: two-hybrid
Direction: higher = firmer interaction
| partner | conditions | scale | positive tests |
| --- | --- | --- | --- |
| ARF1 538-665 (Arabidopsis thaliana, UniProt Q8L7G0) |  | relative to: out of 4 tests | 0 |
| IAA10 (Arabidopsis thaliana, UniProt Q38828) |  | relative to: out of 4 tests | 2 |
| ARF22 498-598 (Arabidopsis thaliana, UniProt Q9C8N7) |  | relative to: out of 4 tests | 1 |
| ARF8 699-811 (Arabidopsis thaliana, UniProt Q9FGV1) |  | relative to: out of 4 tests | 3 |
| IAA12 (Arabidopsis thaliana, UniProt Q38830) |  | relative to: out of 4 tests | 4 |
| ARF16 570-670 (Arabidopsis thaliana, UniProt Q93YR9) |  | relative to: out of 2 tests | 0 |
| ARF2 727-859 (Arabidopsis thaliana, UniProt Q94JM3) |  | relative to: out of 4 tests | 0 |
| IAA14 (Arabidopsis thaliana, UniProt Q38832) |  | relative to: out of 4 tests | 3 |
| IAA33 (Arabidopsis thaliana, UniProt Q9FKM7) |  | relative to: out of 4 tests | 0 |
| IAA13 (Arabidopsis thaliana, UniProt Q38831) |  | relative to: out of 2 tests | 0 |
| ARF5 788-902 (Arabidopsis thaliana, UniProt P93024) |  | relative to: out of 2 tests | 2 |
| IAA11 (Arabidopsis thaliana, UniProt Q38829) | weak activation fusion | relative to: out of 2 tests | 0 |
| IAA19 (Arabidopsis thaliana, UniProt O24409) |  | relative to: out of 2 tests | 2 |
| IAA15 (Arabidopsis thaliana, UniProt Q9C966) |  | relative to: out of 4 tests | 4 |
| ARF9 519-638 (Arabidopsis thaliana, UniProt Q9XED8) | weak activation fusion | relative to: out of 4 tests | 1 |
| IAA9 (Arabidopsis thaliana, UniProt Q38827) |  | relative to: out of 2 tests | 2 |
| ARF7 1030-1164 (Arabidopsis thaliana, UniProt P93022) |  | relative to: out of 2 tests | 2 |
| IAA16 (Arabidopsis thaliana, UniProt O24407) |  | relative to: out of 4 tests | 4 |
| ARF18 482-602 (Arabidopsis thaliana, UniProt Q9C5W9) |  | relative to: out of 4 tests | 0 |
| IAA28 (Arabidopsis thaliana, UniProt Q9XFM0) |  | relative to: out of 2 tests | 2 |
| ARF6 790-935 (Arabidopsis thaliana, UniProt Q9ZTX8) |  | relative to: out of 4 tests | 3 |

Sample 3
Target: ABI1, truncated, D143A, DHFR fusion (Arabidopsis thaliana)
Technique: DHFR PCA, deep sequencing
Medium: yeast
Notes: methotrexate growth selection, single substitutions
Added: (+)-ABA 4.8 µM
Relative to: wild-type fitted maximum
Direction: higher = stronger binding
Starting sequence: PYL1, truncated, DHFR fusion (Arabidopsis thaliana); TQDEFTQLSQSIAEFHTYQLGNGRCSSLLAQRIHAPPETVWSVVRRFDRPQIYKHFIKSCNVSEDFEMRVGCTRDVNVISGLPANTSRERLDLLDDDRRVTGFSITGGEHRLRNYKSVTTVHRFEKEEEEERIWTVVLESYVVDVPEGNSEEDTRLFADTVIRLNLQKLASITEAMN
| Substitution | relative binding score [%] |
| --- | --- |
| N165L | -4.25 |
| E109I | 40.3 |
| A35N | -8.92 |
| Q2A | 72.2 |
| G102Q | 4.72 |
| T135P | 1.4 |
| L82S | 3.09 |
| N61I | 81.9 |
| F15V | 2.23 |
| E128R | 66 |
| T135H | 2.79 |
| Y115N | 6.12 |
| S104C | 12.9 |
| R155N | 20.1 |
| L29K | 6.42 |
| V145F | -0.847 |
| P83V | -13.4 |

Sample 4
Target: UBE2E3 UBC core domain (UniProt Q969T4)
Chain of UniProt Q969T4 (whole entry, looked up): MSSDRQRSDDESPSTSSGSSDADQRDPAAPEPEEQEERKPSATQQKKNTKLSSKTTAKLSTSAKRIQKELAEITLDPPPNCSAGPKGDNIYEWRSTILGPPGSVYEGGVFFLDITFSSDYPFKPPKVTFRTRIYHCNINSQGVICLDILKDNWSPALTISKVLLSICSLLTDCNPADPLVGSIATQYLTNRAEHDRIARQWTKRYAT
Technique: yeast two-hybrid
Medium: yeast
Notes: mostly zero background
Relative to: not given
Direction: higher = stronger interaction
B1: TRAF5 RING domain (UniProt O00463); chain FVERLEERYKCAFCHSVLHNPHQTGCGHRFCQHCILSLRELNTVPICPVDKEVIKSQEVFK
B2: TRIM24 RING domain (UniProt O15164); chain EAARLNLLDTCAVCHQNIQSRAPKLLPCLHSFCQRCLPAPQRYLMLPAPMLGSAETPPPVPAPGSPVSGSSPFATQVGVIRCPVCSQECAERHII
B3: TRIM40 RING domain (UniProt Q6P9F5); chain LQKDNQEEGVCPICQESLKEAVSTNCGHLFCRVCLTQHVEKASASGVFCCPLCRKPCSEEVLG
B4: TRIM43 RING domain (UniProt Q96BQ3); chain FSHAFQKELTCVICLNYLVDPVTICCGHSFCRPCLCLSWEEAQSPANCPACREPSPKMDFKT
B5: RNF208 RING domain (UniProt Q9H0X6); chain SSAAAGEPLECPTCGHSYNVTQRRPRVLSCLHSVCEQCLQILYESCPKYKFISCPTCRRETVLFTDYG
B6: SH3RF2 RING domain (UniProt Q8TEC5); chain DDLTLLDLLECPVCFEKLDVTAKVLPCQHTFCKPCLQRVFKAHKELRCPECRTPVFSNIEAL
B7: RNF111 RING domain (UniProt Q6ZNA4); chain EGTEEDTEEKCTICLSILEEGEDVRRLPCMHLFHQVCVDQWLITNKKCPICRVDIEAQLPSE
B8: TRIM5 RING domain (UniProt Q9C035); chain LREVKLSPEGQKVDHCARHGEKLLLFCQEDGKVICWLCERSQEHRGHHTFLTEEVAREYQVKL
| Molecule | lacZ reporter activity |
| --- | --- |
| B1 (TRAF5 RING domain) | 0 |
| ASLPTSEEDLCPICYAHPISAVFQPCGHKSCKACINQHLMNNKDCFFCKTTIVSVEDWE (RNF123 RING domain (UniProt Q5XPI4)) | 0 |
| DHGAVGQEMCCPICCSEYVKGEVATELPCHHYFHKPCVSIWLQKSGTCPVCRCMFPPPL (PJA1 RING domain (UniProt Q8NG27)) | 0 |
| B2 (TRIM24 RING domain) | 0 |
| B3 (TRIM40 RING domain) | 0 |
| B4 (TRIM43 RING domain) | 0 |
| B5 (RNF208 RING domain) | 0 |
| GAAPGPEAAECLVCSELALLVLFSPCQHRTVCEECARRMKKCIRCQVVVSKKLRPD (MIB2 RING domain (UniProt Q96AX9)) | 0 |
| FQGDVDEDLICPICSGVLEEPVQAPHCEHAFCNACITQWFSQQQTCPVDRSVVTVAHLRP (RNF41 RING domain (UniProt Q9H4P4)) | 0 |
| B6 (SH3RF2 RING domain) | 0 |
| B7 (RNF111 RING domain) | 8410 |
| B8 (TRIM5 RING domain) | 0 |

For quick reference, copied from above (sample 2):
| partner | conditions | scale | positive tests |
| --- | --- | --- | --- |
| IAA28 (Arabidopsis thaliana, UniProt Q9XFM0) |  | relative to: out of 2 tests | 2 |
| IAA11 (Arabidopsis thaliana, UniProt Q38829) | weak activation fusion | relative to: out of 2 tests | 0 |
| IAA12 (Arabidopsis thaliana, UniProt Q38830) |  | relative to: out of 4 tests | 4 |
| IAA15 (Arabidopsis thaliana, UniProt Q9C966) |  | relative to: out of 4 tests | 4 |
